# Assay results gathered from unrelated publications.
# Each numbered part is a random draw from the data of one study; scales do not carry over between parts. Values joined by “and” are separate records of one study, mostly repeats; a detail may differ.
# Sequence of UniProt Q9BQI3 (whole entry, looked up): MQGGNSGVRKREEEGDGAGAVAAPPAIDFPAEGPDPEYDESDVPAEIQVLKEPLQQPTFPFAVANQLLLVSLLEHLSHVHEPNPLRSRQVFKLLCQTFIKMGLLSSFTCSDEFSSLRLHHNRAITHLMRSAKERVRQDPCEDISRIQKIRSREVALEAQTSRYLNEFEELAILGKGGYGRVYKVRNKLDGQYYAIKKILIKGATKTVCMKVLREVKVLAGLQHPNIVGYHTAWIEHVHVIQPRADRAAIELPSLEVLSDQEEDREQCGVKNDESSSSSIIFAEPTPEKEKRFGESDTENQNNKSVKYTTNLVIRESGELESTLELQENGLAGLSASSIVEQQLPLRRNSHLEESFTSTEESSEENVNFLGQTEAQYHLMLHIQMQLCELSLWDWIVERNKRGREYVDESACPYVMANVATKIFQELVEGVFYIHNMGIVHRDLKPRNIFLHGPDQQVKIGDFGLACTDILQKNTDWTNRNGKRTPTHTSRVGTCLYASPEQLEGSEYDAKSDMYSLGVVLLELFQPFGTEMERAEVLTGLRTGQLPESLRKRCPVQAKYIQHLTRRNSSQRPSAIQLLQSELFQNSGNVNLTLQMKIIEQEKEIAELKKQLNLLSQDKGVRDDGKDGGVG
# Sequence of UniProt Q9P2K8 (whole entry, unmodified, looked up): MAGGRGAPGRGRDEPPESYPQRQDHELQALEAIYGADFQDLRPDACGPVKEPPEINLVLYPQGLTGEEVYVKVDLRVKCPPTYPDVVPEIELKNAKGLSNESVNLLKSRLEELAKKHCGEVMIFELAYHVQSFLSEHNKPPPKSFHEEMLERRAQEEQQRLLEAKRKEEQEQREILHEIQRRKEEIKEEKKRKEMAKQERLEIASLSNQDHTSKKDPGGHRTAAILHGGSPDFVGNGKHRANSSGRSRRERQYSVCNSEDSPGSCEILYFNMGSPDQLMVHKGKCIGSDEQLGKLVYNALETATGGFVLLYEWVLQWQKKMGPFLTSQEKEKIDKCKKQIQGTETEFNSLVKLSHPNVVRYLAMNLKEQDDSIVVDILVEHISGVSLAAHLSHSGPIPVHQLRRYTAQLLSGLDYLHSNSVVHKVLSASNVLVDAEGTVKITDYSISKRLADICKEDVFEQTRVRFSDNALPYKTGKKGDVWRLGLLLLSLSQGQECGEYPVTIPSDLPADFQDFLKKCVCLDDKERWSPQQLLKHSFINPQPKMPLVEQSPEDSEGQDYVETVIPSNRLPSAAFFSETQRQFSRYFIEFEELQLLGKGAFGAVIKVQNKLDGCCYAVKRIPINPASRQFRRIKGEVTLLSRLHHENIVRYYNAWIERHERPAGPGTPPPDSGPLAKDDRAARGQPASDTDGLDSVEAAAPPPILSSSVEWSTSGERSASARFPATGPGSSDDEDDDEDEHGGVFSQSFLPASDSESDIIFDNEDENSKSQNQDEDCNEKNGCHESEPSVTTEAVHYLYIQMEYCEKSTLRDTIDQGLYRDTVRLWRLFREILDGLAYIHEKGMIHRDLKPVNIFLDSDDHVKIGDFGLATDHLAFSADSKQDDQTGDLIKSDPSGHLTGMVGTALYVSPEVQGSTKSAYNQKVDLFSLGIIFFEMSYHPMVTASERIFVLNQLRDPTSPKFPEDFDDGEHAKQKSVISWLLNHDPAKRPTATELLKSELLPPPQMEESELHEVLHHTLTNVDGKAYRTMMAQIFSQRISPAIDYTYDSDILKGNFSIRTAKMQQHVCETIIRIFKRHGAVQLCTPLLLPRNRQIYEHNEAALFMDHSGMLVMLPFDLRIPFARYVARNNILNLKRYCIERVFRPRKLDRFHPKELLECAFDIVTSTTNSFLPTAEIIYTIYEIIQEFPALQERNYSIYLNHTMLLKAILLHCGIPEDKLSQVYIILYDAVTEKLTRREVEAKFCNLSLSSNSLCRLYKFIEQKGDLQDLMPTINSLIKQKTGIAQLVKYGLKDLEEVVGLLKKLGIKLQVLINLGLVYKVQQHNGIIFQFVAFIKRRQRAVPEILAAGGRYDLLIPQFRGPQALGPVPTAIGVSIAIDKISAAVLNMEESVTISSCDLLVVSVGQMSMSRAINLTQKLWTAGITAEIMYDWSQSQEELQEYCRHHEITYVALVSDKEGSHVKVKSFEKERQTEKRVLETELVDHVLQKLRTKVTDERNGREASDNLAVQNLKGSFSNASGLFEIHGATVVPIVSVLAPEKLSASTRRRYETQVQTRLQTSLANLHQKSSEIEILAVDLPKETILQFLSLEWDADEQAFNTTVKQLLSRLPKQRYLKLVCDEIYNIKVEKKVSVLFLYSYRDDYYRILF
# Sequence of UniProt P54646 (whole entry, looked up): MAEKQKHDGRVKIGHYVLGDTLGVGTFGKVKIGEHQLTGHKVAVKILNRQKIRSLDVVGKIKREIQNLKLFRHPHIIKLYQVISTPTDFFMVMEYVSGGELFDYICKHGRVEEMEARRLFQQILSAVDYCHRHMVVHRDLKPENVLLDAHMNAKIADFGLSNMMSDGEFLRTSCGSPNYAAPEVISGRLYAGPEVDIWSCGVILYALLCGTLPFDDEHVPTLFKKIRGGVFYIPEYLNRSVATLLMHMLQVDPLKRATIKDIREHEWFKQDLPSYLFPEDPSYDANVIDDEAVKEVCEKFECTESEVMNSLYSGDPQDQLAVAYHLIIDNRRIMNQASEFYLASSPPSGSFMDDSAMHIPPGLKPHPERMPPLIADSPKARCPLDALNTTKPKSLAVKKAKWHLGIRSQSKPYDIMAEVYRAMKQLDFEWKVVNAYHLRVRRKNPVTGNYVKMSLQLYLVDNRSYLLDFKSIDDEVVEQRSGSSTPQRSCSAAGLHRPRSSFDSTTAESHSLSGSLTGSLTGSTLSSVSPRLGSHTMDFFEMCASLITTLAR

# Series 1
# Structure (SMILES): C[C@@H]1CN(c2ccc(-c3cc(C(=O)NCCOCCOCCOCCOCCNC(=O)Cn4cc(-c5[nH]cc(C(=O)N[C@@H](CC(N)=O)c6ccc(F)c(Cl)c6)c5-c5ccc(Cl)cc5F)cn4)ccc3F)cc2NC(=O)c2c[nH]c(=O)cc2C(F)(F)F)C[C@H](C)N1C
# Read-out: thermal unfolding
# Technique: differential scanning fluorimetry
# Tested at: 5.5 µM
# Reading: higher = more unfolded
# DCAF1: DDB1- and CUL4-associated factor 1 (DCAF1, Homo sapiens, UniProt Q9Y4B6)
# Sequence of UniProt Q9Y4B6 (whole entry, looked up): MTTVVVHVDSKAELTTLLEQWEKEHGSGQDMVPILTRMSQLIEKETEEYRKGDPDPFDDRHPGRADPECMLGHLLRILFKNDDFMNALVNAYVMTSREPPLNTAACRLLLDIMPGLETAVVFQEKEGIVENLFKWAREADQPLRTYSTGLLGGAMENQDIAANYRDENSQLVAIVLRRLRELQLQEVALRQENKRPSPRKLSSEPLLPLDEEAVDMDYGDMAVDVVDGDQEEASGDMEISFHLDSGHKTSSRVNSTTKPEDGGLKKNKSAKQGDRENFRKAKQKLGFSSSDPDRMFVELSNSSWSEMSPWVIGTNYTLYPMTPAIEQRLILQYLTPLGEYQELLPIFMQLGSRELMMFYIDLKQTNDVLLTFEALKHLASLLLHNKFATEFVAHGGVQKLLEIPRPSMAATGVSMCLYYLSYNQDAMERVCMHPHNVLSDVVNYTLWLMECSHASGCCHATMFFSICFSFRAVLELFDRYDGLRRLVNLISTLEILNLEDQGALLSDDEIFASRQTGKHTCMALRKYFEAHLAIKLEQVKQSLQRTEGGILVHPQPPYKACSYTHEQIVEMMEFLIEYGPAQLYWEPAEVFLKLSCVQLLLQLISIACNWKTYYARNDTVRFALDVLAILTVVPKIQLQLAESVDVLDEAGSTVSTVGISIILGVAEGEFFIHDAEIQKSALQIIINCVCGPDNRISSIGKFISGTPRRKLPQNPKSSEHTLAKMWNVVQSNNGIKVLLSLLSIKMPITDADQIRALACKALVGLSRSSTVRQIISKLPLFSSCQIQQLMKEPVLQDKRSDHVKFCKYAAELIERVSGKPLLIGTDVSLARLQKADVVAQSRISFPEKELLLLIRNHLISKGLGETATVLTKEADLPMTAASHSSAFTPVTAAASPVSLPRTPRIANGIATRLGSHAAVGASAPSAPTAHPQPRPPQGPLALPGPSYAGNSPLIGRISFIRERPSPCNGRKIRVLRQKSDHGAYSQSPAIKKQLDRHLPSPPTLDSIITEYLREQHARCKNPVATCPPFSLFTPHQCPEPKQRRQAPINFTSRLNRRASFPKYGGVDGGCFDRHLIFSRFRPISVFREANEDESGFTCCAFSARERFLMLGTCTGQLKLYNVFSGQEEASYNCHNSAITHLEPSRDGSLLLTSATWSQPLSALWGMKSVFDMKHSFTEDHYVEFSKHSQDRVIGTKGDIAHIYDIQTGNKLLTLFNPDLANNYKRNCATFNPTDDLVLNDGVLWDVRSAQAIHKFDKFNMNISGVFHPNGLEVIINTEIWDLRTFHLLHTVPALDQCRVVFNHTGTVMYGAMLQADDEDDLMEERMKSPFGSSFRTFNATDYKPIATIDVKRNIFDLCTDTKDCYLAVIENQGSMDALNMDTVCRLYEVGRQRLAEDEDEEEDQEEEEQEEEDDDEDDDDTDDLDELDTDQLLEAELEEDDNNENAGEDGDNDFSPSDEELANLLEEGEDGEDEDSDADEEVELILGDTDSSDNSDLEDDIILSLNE
# WDR5: WD repeat-containing protein 5 (WDR5, Homo sapiens, UniProt P61964)
target,temperature,SYPRO Orange fluorescence [a.u.]
DCAF1,37.8 °C,9600
WDR5,31.2 °C,14900
DCAF1,39.4 °C,10100
WDR5,30 °C,15000
WDR5,49.6 °C,14500
DCAF1,71.01 °C,53400
WDR5,35.6 °C,14300
WDR5,65.41 °C,7450
DCAF1,45.4 °C,12300
DCAF1,35 °C,8840
WDR5,45.8 °C,14300

# Series 2
# SMILES: O=C(Nc1ccccc1)Nc1cccc(Oc2ccc3nccn3n2)c1
# Tested at: 1 µM
target,read-out,technique,remaining binding [%]
"SYK (Homo sapiens, UniProt P43405)",binding,competition with immobilised ligand,88
"RIPK2 (Homo sapiens, UniProt O43353)",binding,competition with immobilised ligand,100
"FLT3 (Homo sapiens, UniProt P36888, N841I)",binding,,86
"PIM2 (Homo sapiens, UniProt Q9P1W9)",binding,,98
"PRKAA2 (Homo sapiens, UniProt P54646)",binding,,100
"JAK1 (Homo sapiens, UniProt P23458)",binding,,95
"BUB1 (Homo sapiens, UniProt O43683)",binding,,100
"SBK1 (Homo sapiens, UniProt Q52WX2)",binding,competition with immobilised ligand,100
"EIF2AK4 (Homo sapiens, UniProt Q9P2K8, S808G)",binding,,86
"CDKL3 (Homo sapiens, UniProt Q8IVW4)",binding,competition with immobilised ligand,100
"FLT4 (Homo sapiens, UniProt P35916)",,cell-free binding,33
"EIF2AK1 (Homo sapiens, UniProt Q9BQI3)",binding,,100
"TBK1 (Homo sapiens, UniProt Q9UHD2)",binding,,90

# Series 3
# Compound: O=C(O)C1(O)Oc2ccccc2N(Cc2ccccc2)C1=O (stereo not shown)
organism,assay,system,setting,scale,inhibition
Arabidopsis thaliana,root length,"Col-0, seedlings",25 µg/mL,,14.6%
Arabidopsis thaliana,root length,"Col-0, seedlings",3.125 µg/mL,,6.2%
Arabidopsis thaliana,hypocotyl length,Col-0,"12.5 µg/mL, 7 days, seed germination, dark",,9.5%
Arabidopsis thaliana,root length,"Col-0, seedlings",25 µg/mL,baseline: water control,14.6%
Avena fatua,fresh weight,,"150 g ai/ha, pre-emergence treatment",,100%
Arabidopsis thaliana,root length,"Col-0, seedlings",50 µg/mL,baseline: water control,19.2%
Arabidopsis thaliana,root length,"Col-0, seedlings",6.25 µg/mL,baseline: water control,3.91%
Arabidopsis thaliana,root length,"Col-0, seedlings",50 µg/mL,,19.2%
Arabidopsis thaliana,hypocotyl length,Col-0,"100 µg/mL, 7 days, seed germination, dark",,31.2%
Glycine max,fresh weight,,"soil surface spray, 150 g ai/ha, 21 days, pre-emergence crop safety",,6.8% and 8% and 7.1%
Amaranthus retroflexus,fresh weight,,"150 g ai/ha, post-emergence treatment",,45.5% and 47.9% and 41%
Arabidopsis thaliana,hypocotyl length,"Col-0, seedlings",100 µg/mL,,36.4%
Arabidopsis thaliana,hypocotyl length,"Col-0, seedlings",12.5 µg/mL,,16.3%
Arabidopsis thaliana,hypocotyl length,Col-0,"25.0 µg/mL, 7 days, seed germination, dark",,22.5%

# Series 4
# SMILES: Cc1ccc(O)c(C)c1-c1cnc2[nH]c(-c3cnc(N4CCC(CN5CCN(c6ccc7c(c6)C(=O)N(C6CCC(=O)NC6=O)C7=O)CC5)CC4)nc3)cc2c1C#N (stereo not shown)
# Target: Membrane-associated tyrosine- and threonine-specific cdc2-inhibitory kinase (PKMYT1, Homo sapiens, UniProt Q99640)
# Sequence of UniProt Q99640 (whole entry, looked up): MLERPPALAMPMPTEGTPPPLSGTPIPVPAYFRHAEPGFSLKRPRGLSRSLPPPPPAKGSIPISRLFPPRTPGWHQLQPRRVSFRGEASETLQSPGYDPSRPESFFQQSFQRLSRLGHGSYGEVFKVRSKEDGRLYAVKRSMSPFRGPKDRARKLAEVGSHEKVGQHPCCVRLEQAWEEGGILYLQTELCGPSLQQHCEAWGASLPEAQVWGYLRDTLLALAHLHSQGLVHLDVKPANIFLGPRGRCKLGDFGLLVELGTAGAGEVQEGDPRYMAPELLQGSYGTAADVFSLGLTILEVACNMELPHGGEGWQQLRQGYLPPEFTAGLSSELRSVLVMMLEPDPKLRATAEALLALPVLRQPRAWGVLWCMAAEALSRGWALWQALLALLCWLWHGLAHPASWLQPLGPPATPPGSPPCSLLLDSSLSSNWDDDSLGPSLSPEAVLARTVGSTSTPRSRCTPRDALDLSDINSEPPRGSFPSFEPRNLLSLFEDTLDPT
read-out,action,technique,tested at,inhibition [%]
,,,0.01235 µM,79.3
cell-free assay,inhibitor,TR-FRET,0.1111 µM,101
cell-free assay,inhibitor,TR-FRET,0.3333 µM,99.3
,,,0.00046 µM,5.77
cell-free assay,inhibitor,TR-FRET,4.12 nM,38
,,,5.1e-05 µM,-1.06
,,,0.000152 µM,-0.31
,,,0.00137 µM,14.3

# Repeated from above (series 4):
read-out,action,technique,tested at,inhibition [%]
cell-free assay,inhibitor,TR-FRET,0.1111 µM,101
cell-free assay,inhibitor,TR-FRET,0.3333 µM,99.3
,,,0.00046 µM,5.77
